# Results from different studies.
# Every numbered part comes from another study and shows a few of its results, in no order.

# Series 1 — technique: protein binding microarray; molecule type: double-stranded DNA, one strand shown; medium: in vitro; concentration: not given; baseline: not given; reading: higher = stronger binding
# Target: Histone acetyltransferase KAT6A, winged helix 2, GST fusion (KAT6A, Homo sapiens, UniProt Q92794, residues 85-181)
# Setting: 8-mer, flanks averaged, mean of 2 arrays, mostly near background
# Construct (chain): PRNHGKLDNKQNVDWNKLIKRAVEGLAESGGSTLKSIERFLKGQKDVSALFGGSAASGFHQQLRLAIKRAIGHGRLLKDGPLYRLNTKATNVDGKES
Strand,E-score
AGGGCAGC,0.155
ACCACTTG,-0.0246
ATCTTAGA,0.0499
AAATTCGG,0.0585
ACAATGCA,0.0653
AAATCTAC,0.0357
AGTGAAGG,-0.0833
ATAGGCTA,-0.161
CCCTTGAC,-0.098
GATCACTA,0.00532
CCAGGCAA,0.141
CCAGACTC,-0.0453

# Series 2 — technique: RNA Bind-n-Seq; molecule type: RNA; medium: in vitro; concentration: 365 nM; baseline: no-protein control; reading: higher = stronger binding
# Target: RNA binding protein fox-1 homolog 2, RRM domain, GST-SBP tag (RBFOX2, Homo sapiens, UniProt O43251-10, residues 100-194)
# Setting: natural RNA segment, single round, ends assumed
Strand,RBNS enrichment (R)
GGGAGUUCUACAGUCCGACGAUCGCGUGAGGAUGGUGGACAGGUAGAAGUUCCAGCCCAGGCAGAUGUGGACAAACAGGGCUCCUGCGUACAGGUCAAUCUAGGGAAAGCAGAGUUGGGCAGAAGUCAGACAUUGGAAUUCUCGGGUGCCAA,0.731
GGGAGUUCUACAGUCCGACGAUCUAUAUCAUCCUUUAUCCCUGAGGUCACCUGGAAUCAGAUUAUUAAGGGAAUAAGCCAUGACGUCAAUAGCAGCCCAGGGCACUUCAGAGUAGAGGGCUUGGGAAGAUCUUUGGAAUUCUCGGGUGCCAA,0.435
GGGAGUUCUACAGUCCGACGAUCAGCUAGGAGCUGCCGCCCCCCACCCCUCGCUCCCUGUAAUCACGUCCUUAACUUCCUUCUGCCGACCUCCACCUCUGGUGGUUCCUGCCCUGCCUGGACACAGGGAGGCCUGGAAUUCUCGGGUGCCAA,0.603
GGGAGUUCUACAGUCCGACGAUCUGGCCAGAAAACUGGUGUUGAAGGCUUUUGCUCAUAUAAACAAGUGCCAUUGAGUUUCAAAUGACCAGCAAAUAUAUUUAGAACCCUUCCUGUUUUAUGUCUGUACCUCGUGGAAUUCUCGGGUGCCAA,0.421
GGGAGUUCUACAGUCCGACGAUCUGAAUCCAACAUCUAUUUGGAAUGAAUGUAAGACCACAGGUAGCAGGCAUACUCCUGCUUAGGAUAACCAUUUGCUGGUCUUCAUUCAAUUCUUUCUCUCUUUUUAUUACUGGAAUUCUCGGGUGCCAA,0.564
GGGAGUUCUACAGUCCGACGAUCACUCACAAACUAAACUCCUUUCUGGUUGUCUGUUUUCAAAAUAGAUACAAUAAACAUUGUUUAUGUCUGGGUGCUGCUGUACAGAAUGCUUCAAGUGUGUUUUGGUUGAAUGGAAUUCUCGGGUGCCAA,0.51
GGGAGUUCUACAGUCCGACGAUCACGCCCUUGGCUUUAGAGCUGUGUUGAAAUCCAUUUUGGUGGUUGGUUUUUAACCCAAACUCAGUGCAUUUUUUAAAAUAGUUAAGAAUCCAAGUCGAGAACACUUGAACUGGAAUUCUCGGGUGCCAA,0.499

# Series 3 — technique: universal PBM; molecule type: double-stranded DNA, one strand shown; medium: in vitro; concentration: 600 nM; reading: higher = stronger binding
# Target: Sal-like protein 4, full length isoform A (SALL4, Homo sapiens, UniProt Q9UJQ4, residues 1-1053)
# Sequence of UniProt Q9UJQ4 (whole entry, looked up): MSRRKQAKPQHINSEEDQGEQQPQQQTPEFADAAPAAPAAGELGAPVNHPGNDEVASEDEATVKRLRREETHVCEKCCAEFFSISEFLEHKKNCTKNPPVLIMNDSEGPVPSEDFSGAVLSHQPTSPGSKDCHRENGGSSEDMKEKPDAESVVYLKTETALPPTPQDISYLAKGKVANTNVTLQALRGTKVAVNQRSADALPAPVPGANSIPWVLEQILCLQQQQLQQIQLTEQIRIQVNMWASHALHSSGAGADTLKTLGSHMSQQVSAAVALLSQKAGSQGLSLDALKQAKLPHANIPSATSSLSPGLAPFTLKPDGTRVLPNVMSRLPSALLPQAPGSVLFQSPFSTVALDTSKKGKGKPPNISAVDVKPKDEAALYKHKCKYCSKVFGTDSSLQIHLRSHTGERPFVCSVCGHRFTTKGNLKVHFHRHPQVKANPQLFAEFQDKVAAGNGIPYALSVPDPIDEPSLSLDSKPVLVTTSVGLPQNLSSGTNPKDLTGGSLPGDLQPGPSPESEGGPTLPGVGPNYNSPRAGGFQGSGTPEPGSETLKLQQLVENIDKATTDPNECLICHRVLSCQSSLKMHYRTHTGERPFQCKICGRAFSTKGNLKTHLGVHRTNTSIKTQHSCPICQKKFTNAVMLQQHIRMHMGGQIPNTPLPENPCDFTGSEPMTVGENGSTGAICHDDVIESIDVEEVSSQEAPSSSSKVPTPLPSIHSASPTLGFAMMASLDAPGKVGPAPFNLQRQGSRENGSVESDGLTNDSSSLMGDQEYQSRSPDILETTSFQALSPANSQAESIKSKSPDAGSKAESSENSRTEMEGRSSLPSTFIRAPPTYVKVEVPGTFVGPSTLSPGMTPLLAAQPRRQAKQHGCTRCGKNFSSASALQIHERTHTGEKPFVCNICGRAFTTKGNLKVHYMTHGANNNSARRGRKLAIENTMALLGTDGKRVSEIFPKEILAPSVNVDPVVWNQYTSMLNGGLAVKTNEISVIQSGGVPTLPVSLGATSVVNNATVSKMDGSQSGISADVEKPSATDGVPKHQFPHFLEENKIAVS
# Setting: 8-mer, flanks averaged, mean of replicates
Strand,E-score
GGGGCTAC,-0.323
GTTGGGCA,-0.0742
TCATTACA,0.29
GTTCTGCA,-0.0386
GAGGTGAA,-0.00684
AACTGTAT,0.329
GATCTTTA,0.188

# Mixed results
Substance,target,assay,test system,conditions,how to read,endpoint,value
"PhoQ, residues 284 288 289 292 302 303 NLMGRA","PhoP, residues 12 14 15 18 19 LHHSG (Escherichia coli, UniProt P23836)","Sort-seq, refers to: YFP reporter",E. coli,"PhoQ-PhoP variant library, together with: 10 µM Mg2+","baseline: high Mg2+ state, higher = stronger signaling",fold induction,10.5

# For quick reference, copied from above (series 2):
Strand,RBNS enrichment (R)
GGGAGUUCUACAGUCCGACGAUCUGGCCAGAAAACUGGUGUUGAAGGCUUUUGCUCAUAUAAACAAGUGCCAUUGAGUUUCAAAUGACCAGCAAAUAUAUUUAGAACCCUUCCUGUUUUAUGUCUGUACCUCGUGGAAUUCUCGGGUGCCAA,0.421
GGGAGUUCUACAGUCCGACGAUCUGAAUCCAACAUCUAUUUGGAAUGAAUGUAAGACCACAGGUAGCAGGCAUACUCCUGCUUAGGAUAACCAUUUGCUGGUCUUCAUUCAAUUCUUUCUCUCUUUUUAUUACUGGAAUUCUCGGGUGCCAA,0.564
